Published values pooled from the literature.
Target: RAC-beta serine/threonine-protein kinase (AKT2, Homo sapiens, UniProt P31751)

COc1c(Cl)cccc1Nc1c(-c2ccncc2C#C[C@@]2(C)CCCN2C(=O)/C=C/CN(C)C)[nH]c2c1C(=O)NCC2  remaining binding (binding, competition with immobilised ligand; 3 µM): 89%
Cc1cccc(-c2ccc3nc(NC(=O)C4CCOCC4)nn3c2)c1  activity vs control (enzyme activity, inhibitor; 10 µM): 66%
Nc1ncc(-c2cc(-c3cnn(CC(F)(F)F)c3)ncc2F)nc1C(=O)NC1CNCC(F)C1 (stereo not shown)  remaining activity (enzyme activity; 1 µM; baseline: DMSO control): 106%
Cc1ccc(-c2c(/C=C(\C#N)C(=O)NC(C)C)n(CCCO)c3ncnc(N)c23)cc1  remaining binding (cell-free assay, competition with immobilised ligand; 1 µM): 100%
CC(=O)N1c2ccc(-c3ccc(CNC(=O)c4cn5cc(-c6cnc(N)nc6)nc(N6CCOCC6)c5n4)cc3)cc2CC[C@@H]1C  remaining binding (KINOMEscan; 10 µM): 93%
CN1CCN(Cc2ccc(NC(=O)c3cccc(C#Cc4cnc(N)c5ncccc45)c3)cc2C(F)(F)F)CC1  remaining binding (cell-free assay, competition with immobilised ligand; 50 nM): 70%
O=C=[N][Ru-4]123([n]4c5ccc(O)cc5c5c6c(c7cc(F)c[n+]1c7c54)C(=O)NC6=O)[S+]1CC[S+]2CC[S+]3CC1 (stereo not shown)  remaining activity (enzyme activity; 100 nM, human enzyme, with: 10 µM ATP; baseline: untreated): 90%
C=CC(=O)Nc1cccc(-c2cnc3[nH]cc(C(=O)NC(C)(C)C)c3n2)c1  inhibition (enzyme activity, inhibitor; 0.1 µM): 3%
COc1cc(Nc2nccc(-c3cnn4nc(OC)ccc34)n2)cc(C(F)(F)F)c1  remaining binding (binding, competition with immobilised ligand; 1 µM): 100%
C=CC(=O)N1CCc2ccc(-n3c(=O)ccc4cnc5ccc(-c6cnn(C)c6)cc5c43)cc21  remaining binding (KINOMEscan; 1 µM; baseline: DMSO control): 88%
O=c1c(-c2ccc(Cl)c(CN3CCOCC3)c2)coc2cc(O)ccc12  remaining activity (enzyme activity, inhibitor; 1 µM): 95%
Cc1cccc(O[C@H]2CCC[C@@H](C(C)CNCc3ccncc3)C2)c1 (relative stereo)  inhibition (enzyme activity, inhibitor; 1 µM): 2%
CN1CC[C@@H](COc2cnc(C#N)cc2-c2ccn3nc(NC(=O)C4CC4)cc3c2)C1  inhibition (enzyme activity, inhibitor; 1 µM): -3%
CNC(=O)C1CCN(c2cc(C)c(F)cc2NC(=O)c2ccc(-c3cc(O)ccc3C)c(C)c2)CC1  remaining binding (binding, competition with immobilised ligand; 1 µM): 100%
Cc1cnc2nc1Nc1cccc(c1)COC/C=C/COCc1cc(ccc1OCCN1CCOCC1)N2  remaining binding (binding; 0.1 µM): 100%
C=CC(=O)N1CCCC(n2c(=O)c3ncccc3n(Cc3ccc(Oc4ccccc4)cc3)c2=O)C1 (stereo not shown)  remaining binding (cell-free assay, competition with immobilised ligand; 1 µM): 93%
COc1c(OCCCN2CCOCC2)ccc2c1N=C(NC(=O)c1cnc(N)nc1)N1CCN=C21  remaining activity (kinase activity, inhibitor; 1 µM; baseline: untreated control): 105%
NC(=O)C[C@H]1CCc2sc3ncnc(O[C@H]4CC[C@H](N5CCOCC5)CC4)c3c21  inhibition (enzyme activity, inhibitor; 10 µM): 9%
C=C1CCCCCCCCCC(CO)C1=O (stereo not shown)  remaining binding (cell-free assay, competition with immobilised ligand; 10 µM): 100%
Cc1cccc(-c2ccc3nc(NC(=O)C4CCCO4)nn3c2)c1 (stereo not shown)  activity vs control (enzyme activity, inhibitor; 10 µM): 67%
CCN1CCN(Cc2ccc(C(=O)Nc3ccc(C)c(NCc4cnc5[nH]ccc5c4OC)c3)cc2C(F)(F)F)CC1  remaining binding (binding, competition with immobilised ligand; 1 µM): 93%
COc1ccc(NC(=O)Nc2ccc3c(c2)C(=O)N(C(C)CO)CC(C)C(CN(C)Cc2ccc4c(c2)OCO4)O3)cc1 (stereo not shown)  remaining activity (kinase activity, KinaseProfiler; 0.03 µM, species human; baseline: control): 107%
